Assay results collected from several papers.
Numbered parts are unrelated; each lists some results of a single study.

Study 1 — technique: protein binding microarray; form: double-stranded DNA, one strand shown; sample: in vitro; concentration: not given; relative to: not given; reading: higher = stronger binding
Target: Histone acetyltransferase KAT6A, both winged helices, GST fusion (KAT6A, Homo sapiens, UniProt Q92794, residues 1-181)
Notes: 8-mer, flanks averaged, mean of 2 arrays, mostly near background
Residues (chain): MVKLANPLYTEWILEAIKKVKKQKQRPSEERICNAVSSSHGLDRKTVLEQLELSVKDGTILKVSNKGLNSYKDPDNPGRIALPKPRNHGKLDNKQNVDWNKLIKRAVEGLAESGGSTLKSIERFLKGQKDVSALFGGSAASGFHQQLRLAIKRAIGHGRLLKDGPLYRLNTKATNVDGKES
`CGCTTCGC` gave an E-score of 0.319.
`GAGCCCCA` gave an E-score of -0.236.
For `GCGTCTTA`, the E-score was 0.162.
With `GTAGTTCA` the E-score was -0.114.
With `ACCCCTAA` the E-score was -0.217.
`AGAGTGGC` has an E-score of -0.117.
`CTGGGCAC` gave an E-score of -0.0816.
For `ATGTGTAC`, the E-score was -0.0483.
For `ACTCAGAT`, the E-score was -0.109.
`CTTAGATC` has an E-score of -0.124.
`TCCGCCAA` has an E-score of 0.0545.
`GACGTGCC` has an E-score of 0.0121.
The E-score of `CTGGTAAA` is reported as -0.153.
`GGAATCGA` has an E-score of 0.0374.
With `ATACACCA` the E-score was -0.0932.
The E-score of `CCCCCGCC` is reported as 0.0735.
`AAATCACC` has an E-score of 0.0468.
For `GTTACTTA`, the E-score was -0.0642.
`AGTGACTA` gave an E-score of -0.0868.
For `ACCGCCCA`, the E-score was 0.0851.
For `CCGCCCCG`, the E-score was 0.269.
With `GACCTAGC` the E-score was -0.0536.
With `CTCCTGTA` the E-score was -0.0546.
For `GGTGCGAC`, the E-score was 0.155.
`CCTATCCG` has an E-score of 0.0743.

Study 2 — technique: universal PBM; form: double-stranded DNA, one strand shown; sample: in vitro; concentration: 600 nM; reading: higher = stronger binding
Target: Sal-like protein 4, full length isoform A (SALL4, Homo sapiens, UniProt Q9UJQ4, residues 1-1053)
Sequence of UniProt Q9UJQ4 (whole entry, looked up): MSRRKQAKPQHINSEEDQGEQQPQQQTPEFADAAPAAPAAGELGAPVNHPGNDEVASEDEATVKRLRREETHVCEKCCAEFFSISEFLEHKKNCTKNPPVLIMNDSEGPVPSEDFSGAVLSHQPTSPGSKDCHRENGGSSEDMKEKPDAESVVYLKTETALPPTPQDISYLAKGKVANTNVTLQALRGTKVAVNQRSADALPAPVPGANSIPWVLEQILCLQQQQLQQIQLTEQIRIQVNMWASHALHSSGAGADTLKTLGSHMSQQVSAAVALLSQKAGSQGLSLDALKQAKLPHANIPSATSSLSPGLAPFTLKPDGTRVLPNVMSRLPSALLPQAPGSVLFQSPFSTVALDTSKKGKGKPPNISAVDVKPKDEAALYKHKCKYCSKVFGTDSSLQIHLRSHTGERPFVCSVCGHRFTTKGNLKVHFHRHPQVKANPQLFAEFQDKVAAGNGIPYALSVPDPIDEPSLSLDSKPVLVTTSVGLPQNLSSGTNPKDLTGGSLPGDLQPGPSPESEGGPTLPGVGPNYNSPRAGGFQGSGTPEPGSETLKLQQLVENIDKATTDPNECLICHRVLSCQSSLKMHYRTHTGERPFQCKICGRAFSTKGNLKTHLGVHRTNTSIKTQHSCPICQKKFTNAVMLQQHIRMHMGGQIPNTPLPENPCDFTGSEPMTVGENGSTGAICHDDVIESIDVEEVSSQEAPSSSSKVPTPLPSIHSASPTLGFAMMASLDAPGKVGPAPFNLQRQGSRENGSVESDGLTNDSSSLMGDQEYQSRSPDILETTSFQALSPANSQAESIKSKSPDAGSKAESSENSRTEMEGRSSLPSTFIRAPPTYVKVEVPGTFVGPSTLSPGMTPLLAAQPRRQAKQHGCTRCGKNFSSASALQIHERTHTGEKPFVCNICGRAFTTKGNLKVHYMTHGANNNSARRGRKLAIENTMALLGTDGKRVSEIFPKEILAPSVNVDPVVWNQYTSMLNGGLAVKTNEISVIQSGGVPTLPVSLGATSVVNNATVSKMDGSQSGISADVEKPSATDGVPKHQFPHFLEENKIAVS
Notes: 8-mer, flanks averaged, mean of replicates
`ACCCGGCT` gave an E-score of -0.287.
`AAGTTCCG` gave an E-score of -0.0624.
For `AGACCCTA`, the E-score was -0.127.
`GTCTAGGA` gave an E-score of 0.024.
`CTTGCGAC` gave an E-score of -0.183.
`AAATATCT` gave an E-score of 0.326.
The E-score of `AATAGTGG` is reported as 0.19.
The E-score of `ACTGTAAT` is reported as 0.254.
`ACTGGAAG` gave an E-score of -0.0858.
The E-score of `ACCGTTGA` is reported as -0.0258.
`TACAACTA` has an E-score of 0.0976.
`CGTCCTAG` gave an E-score of -0.203.
`GCTTACCC` has an E-score of -0.13.
For `CGCTGCCA`, the E-score was -0.209.
The E-score of `GATTTCAA` is reported as 0.13.
`ATTCCCCG` gave an E-score of 0.00717.
`TAACCCCA` has an E-score of -0.142.
`CATACCCA` has an E-score of 0.0022.
`GAAAGCAC` gave an E-score of -0.0737.
With `CCTTGCCA` the E-score was 0.0601.
`CAGTAGGG` gave an E-score of -0.221.
The E-score of `GCCATGGC` is reported as -0.188.
`TAGTTGGA` gave an E-score of 0.131.
`AGGAAGAC` gave an E-score of -0.068.

Study 3 — technique: RNAcompete; form: RNA; sample: in vitro; concentration: 20 nM; notes: 7-mer, probes averaged, single round; relative to: mean of 7-mers; reading: higher = stronger binding
Target: PABPC1L2, full length, GST fusion (mouse, UniProt A0ABA7IW68)
Residues (chain): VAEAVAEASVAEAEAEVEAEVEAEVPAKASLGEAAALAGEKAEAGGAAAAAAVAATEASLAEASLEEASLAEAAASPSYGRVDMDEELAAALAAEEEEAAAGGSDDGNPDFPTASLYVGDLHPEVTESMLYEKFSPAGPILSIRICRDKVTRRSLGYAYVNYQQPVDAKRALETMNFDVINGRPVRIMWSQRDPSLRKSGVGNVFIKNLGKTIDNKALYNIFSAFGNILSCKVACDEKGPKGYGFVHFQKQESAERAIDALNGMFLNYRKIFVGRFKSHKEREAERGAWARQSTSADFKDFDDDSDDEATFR
`UCUGUAA` has a 7-mer Z-score of -0.00289.
With `ACCUCAA` the 7-mer Z-score was -0.00108.
With `UGGAUCC` the 7-mer Z-score was 0.00436.
`UUUUUAC` gave a 7-mer Z-score of -0.012.
`UACUCGG` has a 7-mer Z-score of -0.0989.
`CAUUCCG` gave a 7-mer Z-score of -0.28.
For `UCUUGUU`, the 7-mer Z-score was -0.507.
The 7-mer Z-score of `UAUCCGG` is reported as -0.195.
The 7-mer Z-score of `UCAUAUG` is reported as -0.153.
`UGGUGAU` has a 7-mer Z-score of -0.135.
`UAGUCUA` gave a 7-mer Z-score of -0.229.
`CUAUGUA` has a 7-mer Z-score of -0.166.
For `UUAAACG`, the 7-mer Z-score was 0.0334.
`GCCUGAU` has a 7-mer Z-score of -0.117.
With `GAAUUUA` the 7-mer Z-score was 0.0841.
With `ACGGAAA` the 7-mer Z-score was 0.802.
With `UCGUGUA` the 7-mer Z-score was -0.079.
`UCAUCGU` gave a 7-mer Z-score of -0.393.
The 7-mer Z-score of `GAACCAC` is reported as 0.0116.
The 7-mer Z-score of `UUUGGAC` is reported as -0.179.
For `UUUGGUC`, the 7-mer Z-score was -0.393.
With `GCUCACU` the 7-mer Z-score was -0.266.
`UGGCGUA` gave a 7-mer Z-score of -0.122.
The 7-mer Z-score of `GACCGUA` is reported as -0.266.
`GCCCGGG` gave a 7-mer Z-score of -0.289.

Study 4 — technique: RNA Bind-n-Seq; form: RNA; sample: in vitro; concentration: not given; relative to: input RNA pool; reading: higher = stronger binding
Target: RING finger protein unkempt homolog, zinc fingers 1-6, GST-SBP tag (UNK, Homo sapiens, UniProt Q9C0B0, residues 30-357)
Notes: RNA with constant flanks, human and mouse sites, ends assumed
Target sequence (chain): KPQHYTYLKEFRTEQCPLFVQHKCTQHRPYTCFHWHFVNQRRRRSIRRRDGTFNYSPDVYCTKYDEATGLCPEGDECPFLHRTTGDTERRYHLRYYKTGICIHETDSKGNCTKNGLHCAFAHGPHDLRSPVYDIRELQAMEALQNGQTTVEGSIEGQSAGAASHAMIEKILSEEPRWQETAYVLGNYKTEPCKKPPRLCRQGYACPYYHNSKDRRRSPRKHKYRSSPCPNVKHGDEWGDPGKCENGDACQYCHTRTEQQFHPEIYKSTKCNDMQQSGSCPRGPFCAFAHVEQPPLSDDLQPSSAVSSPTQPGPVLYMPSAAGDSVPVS
`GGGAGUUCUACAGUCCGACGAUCGAGUCACUUCCUCUGGUUGACACCCACUCAAAAAGAACACUCCUGAUUAAGACGGUUGAGACCAGAGAUGGACAGGUGAUCAAUGAGACUUCUCAGCAUCACGAUGACCUUGAAUAAAAACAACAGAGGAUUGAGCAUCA` has a bound/input enrichment of 0.117 ratio.
`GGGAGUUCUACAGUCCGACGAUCCCCAACAACACAGUAGUUGGGUCAUCAUAUGUACUUUUUGUCUUAUCGAUUUUCUUCACAAUAGUAGGACUUCUGUUUGCUGGCAAAGUCUGUUUACCAGGCUGACGAAUGUCUAAACGGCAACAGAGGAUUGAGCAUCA` has a bound/input enrichment of 0.212 ratio.
For `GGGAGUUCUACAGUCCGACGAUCGGAACCUGCCGGGGCAGCGGACGUUGGAAGGGCGCUGGGCCUCGGCUGGGACCGUUCAUGUAGCAGCAACCGGCGGCGGCUGCCGCAGAGCAGCGUUCGGUUUUGUUUUUAAAUUUUGAACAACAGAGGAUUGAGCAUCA`, the bound/input enrichment was 0.649 ratio.
With `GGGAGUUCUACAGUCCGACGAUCUGCUUUUCUUUCUAAGCAGAGUAUGGUUGUCAUCUUUCUGGACAGAUGAAUUGAUAGGAGAUAGAAGGUCGAAAGAUGGCUGUUAUACCAGCCUAAGUUCAGAACACCAGCAUAUCAAGGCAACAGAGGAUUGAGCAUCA` the bound/input enrichment was 0.298 ratio.
The bound/input enrichment of `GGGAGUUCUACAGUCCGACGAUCUACGGGACCCUGGACACUCACCUGGUGUACUCAGAAGAGUCCCCUCUGAGCUGAGACCGUGCUAGGCUGCUGUGCAGUUUGGCGCAGUGACAGACCCGGCUUUUGUUUCUGGGCUUCCAGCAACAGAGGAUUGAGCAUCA` is reported as 0.0417 ratio.
`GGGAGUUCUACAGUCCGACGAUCGGGCAGACUAAGACAGUCAGAGUGUUCCGCUUUAUAACUGAUAACACUGUAGAAGAAAGAAUAGUAGAACGUGCUGAGAUGAAACUCAGACUGGAUUCAAUAGUCAUUCAACAAGGGAGGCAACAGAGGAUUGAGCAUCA` has a bound/input enrichment of 1.48 ratio.
`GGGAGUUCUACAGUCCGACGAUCACGCAGUUAAUCCAGUUGAGUACCUUACUCAGGUUACUGGACAGUGGAUUUUGUAGCUAUUUAGAAUCCCAGGACUCUGGAUAUCUAUAUUUUUGCUUCAGAUGGCUUUUAAUCAGAUUUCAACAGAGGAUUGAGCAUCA` gave a bound/input enrichment of 0.201 ratio.
For `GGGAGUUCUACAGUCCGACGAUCAAAGAAAACCUGGAGACUUCUCCUUUCAUAACUCCCGGAAAGCCUUGGGAAGAGGCCCGUAGUUUUAUUAUGAAUGAGGAUUUCUACCAGUGGCUGGAGGAAUCUGUAUACAUGGAUAUUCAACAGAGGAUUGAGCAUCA`, the bound/input enrichment was 2.06 ratio.

Excerpt of the above (study 2):
The E-score of `ACTGTAAT` is reported as 0.254.
`ACTGGAAG` gave an E-score of -0.0858.
The E-score of `ACCGTTGA` is reported as -0.0258.
`TACAACTA` has an E-score of 0.0976.
`CGTCCTAG` gave an E-score of -0.203.
`GCTTACCC` has an E-score of -0.13.
For `CGCTGCCA`, the E-score was -0.209.
The E-score of `GATTTCAA` is reported as 0.13.
`ATTCCCCG` gave an E-score of 0.00717.
